Measured values pooled from the literature.
Compare with care: the assays were run in different laboratories. Values joined by “and” are separate records of one study, mostly repeats; a detail may differ. Numbers after ± are the reported error.
Cereblon/Ikaros: Cereblon/Ikaros (Homo sapiens, UniProt Q13422+Q96SW2)
Chain of UniProt Q13422 (whole entry, looked up): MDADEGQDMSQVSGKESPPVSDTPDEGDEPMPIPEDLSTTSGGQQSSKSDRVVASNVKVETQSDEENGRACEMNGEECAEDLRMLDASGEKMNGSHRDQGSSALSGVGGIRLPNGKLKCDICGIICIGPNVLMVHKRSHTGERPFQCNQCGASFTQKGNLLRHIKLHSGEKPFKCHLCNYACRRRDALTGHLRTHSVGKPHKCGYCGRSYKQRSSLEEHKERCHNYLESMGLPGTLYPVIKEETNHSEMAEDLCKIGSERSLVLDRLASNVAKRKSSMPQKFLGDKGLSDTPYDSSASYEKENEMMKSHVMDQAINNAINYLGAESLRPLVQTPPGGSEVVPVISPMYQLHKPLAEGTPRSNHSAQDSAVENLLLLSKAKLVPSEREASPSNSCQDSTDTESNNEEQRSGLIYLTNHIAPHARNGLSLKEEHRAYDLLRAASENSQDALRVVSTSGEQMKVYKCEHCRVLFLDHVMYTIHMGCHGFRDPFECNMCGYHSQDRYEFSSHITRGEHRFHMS
Chain of UniProt Q96SW2 (whole entry, looked up): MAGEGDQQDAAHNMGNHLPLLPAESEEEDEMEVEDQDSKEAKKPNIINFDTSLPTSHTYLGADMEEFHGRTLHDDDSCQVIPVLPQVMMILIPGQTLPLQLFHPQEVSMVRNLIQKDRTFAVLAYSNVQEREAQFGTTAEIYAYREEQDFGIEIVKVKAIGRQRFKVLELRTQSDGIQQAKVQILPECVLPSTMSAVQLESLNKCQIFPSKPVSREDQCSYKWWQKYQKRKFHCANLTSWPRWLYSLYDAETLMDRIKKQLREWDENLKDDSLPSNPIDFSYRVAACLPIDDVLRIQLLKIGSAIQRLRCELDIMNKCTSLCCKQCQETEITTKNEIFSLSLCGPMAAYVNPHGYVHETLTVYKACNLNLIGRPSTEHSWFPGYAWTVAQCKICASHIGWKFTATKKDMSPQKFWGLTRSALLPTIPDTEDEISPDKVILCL
TOP2A: DNA topoisomerase 2-alpha (TOP2A, Homo sapiens, UniProt P11388)
Chain of UniProt P11388 (whole entry, looked up): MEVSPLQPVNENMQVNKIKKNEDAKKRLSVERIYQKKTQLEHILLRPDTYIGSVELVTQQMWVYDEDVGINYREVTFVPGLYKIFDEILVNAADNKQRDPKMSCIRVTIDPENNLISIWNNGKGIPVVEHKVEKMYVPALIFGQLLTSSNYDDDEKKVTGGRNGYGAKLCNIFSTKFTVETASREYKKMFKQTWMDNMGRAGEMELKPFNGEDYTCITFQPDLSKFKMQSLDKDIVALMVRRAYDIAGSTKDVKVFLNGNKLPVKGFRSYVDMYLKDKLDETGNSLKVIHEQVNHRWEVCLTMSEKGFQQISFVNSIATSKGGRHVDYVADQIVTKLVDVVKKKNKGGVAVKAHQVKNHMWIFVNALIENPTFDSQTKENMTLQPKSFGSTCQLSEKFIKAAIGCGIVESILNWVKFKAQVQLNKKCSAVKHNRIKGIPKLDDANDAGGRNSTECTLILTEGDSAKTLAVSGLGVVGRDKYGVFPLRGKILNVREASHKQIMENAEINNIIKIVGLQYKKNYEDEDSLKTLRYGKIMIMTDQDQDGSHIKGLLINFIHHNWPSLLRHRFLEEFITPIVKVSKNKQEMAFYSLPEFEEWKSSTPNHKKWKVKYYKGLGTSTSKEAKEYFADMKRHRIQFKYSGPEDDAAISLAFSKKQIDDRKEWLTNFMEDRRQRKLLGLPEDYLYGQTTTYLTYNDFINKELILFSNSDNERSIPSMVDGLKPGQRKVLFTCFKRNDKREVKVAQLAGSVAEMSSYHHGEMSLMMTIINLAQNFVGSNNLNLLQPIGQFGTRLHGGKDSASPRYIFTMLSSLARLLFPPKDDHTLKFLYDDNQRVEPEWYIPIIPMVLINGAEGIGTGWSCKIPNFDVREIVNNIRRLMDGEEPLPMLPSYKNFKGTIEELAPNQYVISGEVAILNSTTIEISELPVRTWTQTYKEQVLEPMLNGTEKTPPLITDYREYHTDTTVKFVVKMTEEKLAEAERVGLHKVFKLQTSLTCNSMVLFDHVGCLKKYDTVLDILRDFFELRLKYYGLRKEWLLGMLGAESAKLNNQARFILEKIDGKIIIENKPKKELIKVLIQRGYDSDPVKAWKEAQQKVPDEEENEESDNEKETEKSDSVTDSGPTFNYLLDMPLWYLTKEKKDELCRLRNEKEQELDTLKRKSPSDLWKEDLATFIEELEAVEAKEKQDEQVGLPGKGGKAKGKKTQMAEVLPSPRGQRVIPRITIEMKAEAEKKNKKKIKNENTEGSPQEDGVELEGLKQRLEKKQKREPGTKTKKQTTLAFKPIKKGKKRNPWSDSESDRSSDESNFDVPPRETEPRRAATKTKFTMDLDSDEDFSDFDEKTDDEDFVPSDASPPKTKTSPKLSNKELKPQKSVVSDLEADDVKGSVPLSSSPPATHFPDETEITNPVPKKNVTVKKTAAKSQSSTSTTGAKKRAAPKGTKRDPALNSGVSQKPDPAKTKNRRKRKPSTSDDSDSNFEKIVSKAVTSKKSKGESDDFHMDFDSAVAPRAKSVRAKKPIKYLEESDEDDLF
ELANE: Neutrophil elastase (ELANE, Homo sapiens, UniProt P08246)
Chain of UniProt P08246 (whole entry, looked up): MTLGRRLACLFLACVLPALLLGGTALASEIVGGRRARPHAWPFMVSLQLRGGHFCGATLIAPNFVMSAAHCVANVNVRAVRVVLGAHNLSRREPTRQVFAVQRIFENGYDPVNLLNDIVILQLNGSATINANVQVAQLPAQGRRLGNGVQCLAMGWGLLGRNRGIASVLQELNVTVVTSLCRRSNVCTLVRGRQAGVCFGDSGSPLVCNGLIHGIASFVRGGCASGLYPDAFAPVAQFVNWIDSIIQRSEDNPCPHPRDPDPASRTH
T1: G-quadruplex RNA (Caenorhabditis elegans); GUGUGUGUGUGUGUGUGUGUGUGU
Chain of UniProt P28331 (whole entry, looked up): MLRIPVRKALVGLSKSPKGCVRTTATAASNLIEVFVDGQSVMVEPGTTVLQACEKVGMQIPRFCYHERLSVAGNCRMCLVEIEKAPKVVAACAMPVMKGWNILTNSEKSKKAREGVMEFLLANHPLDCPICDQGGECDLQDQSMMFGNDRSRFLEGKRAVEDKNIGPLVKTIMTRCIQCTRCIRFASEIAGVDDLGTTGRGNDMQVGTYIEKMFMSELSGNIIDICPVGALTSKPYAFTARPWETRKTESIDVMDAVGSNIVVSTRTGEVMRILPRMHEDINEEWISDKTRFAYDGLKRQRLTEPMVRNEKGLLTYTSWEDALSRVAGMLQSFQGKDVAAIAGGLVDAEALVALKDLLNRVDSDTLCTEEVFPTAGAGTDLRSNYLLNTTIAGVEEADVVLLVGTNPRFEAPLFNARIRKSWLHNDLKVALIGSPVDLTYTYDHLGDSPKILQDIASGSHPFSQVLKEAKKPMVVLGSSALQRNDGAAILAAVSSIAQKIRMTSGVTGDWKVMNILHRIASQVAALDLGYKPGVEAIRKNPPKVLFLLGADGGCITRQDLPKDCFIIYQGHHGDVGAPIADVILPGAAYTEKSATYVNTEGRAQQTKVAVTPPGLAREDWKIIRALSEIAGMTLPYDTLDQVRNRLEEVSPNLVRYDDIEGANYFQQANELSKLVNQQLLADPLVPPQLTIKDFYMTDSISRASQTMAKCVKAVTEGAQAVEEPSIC
Chain of UniProt Q16774 (whole entry, unmodified, looked up): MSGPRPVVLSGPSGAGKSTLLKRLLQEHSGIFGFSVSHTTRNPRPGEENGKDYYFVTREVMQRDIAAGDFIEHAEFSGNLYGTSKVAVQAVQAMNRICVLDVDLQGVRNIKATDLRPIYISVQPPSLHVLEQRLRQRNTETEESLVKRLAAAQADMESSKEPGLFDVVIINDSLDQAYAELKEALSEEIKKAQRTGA
Chain of UniProt Q5A961 (whole entry, looked up): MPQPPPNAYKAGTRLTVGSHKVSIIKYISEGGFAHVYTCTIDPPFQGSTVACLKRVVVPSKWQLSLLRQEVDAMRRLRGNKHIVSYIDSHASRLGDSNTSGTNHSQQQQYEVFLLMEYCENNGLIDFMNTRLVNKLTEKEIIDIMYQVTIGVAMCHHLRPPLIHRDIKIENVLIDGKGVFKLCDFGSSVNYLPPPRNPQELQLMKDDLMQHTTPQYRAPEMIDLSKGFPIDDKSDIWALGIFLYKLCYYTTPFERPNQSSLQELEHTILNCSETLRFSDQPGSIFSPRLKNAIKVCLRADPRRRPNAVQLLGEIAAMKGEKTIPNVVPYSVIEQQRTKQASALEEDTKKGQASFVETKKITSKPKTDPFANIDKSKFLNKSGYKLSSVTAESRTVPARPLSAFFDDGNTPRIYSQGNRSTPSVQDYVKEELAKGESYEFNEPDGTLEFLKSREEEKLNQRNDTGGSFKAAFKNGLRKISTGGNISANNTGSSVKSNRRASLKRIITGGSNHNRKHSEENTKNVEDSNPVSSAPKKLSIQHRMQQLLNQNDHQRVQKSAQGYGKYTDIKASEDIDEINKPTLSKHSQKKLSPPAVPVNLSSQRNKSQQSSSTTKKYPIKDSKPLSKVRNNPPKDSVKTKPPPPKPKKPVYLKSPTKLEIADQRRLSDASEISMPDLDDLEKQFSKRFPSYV
Chain of UniProt O95069 (whole entry, looked up): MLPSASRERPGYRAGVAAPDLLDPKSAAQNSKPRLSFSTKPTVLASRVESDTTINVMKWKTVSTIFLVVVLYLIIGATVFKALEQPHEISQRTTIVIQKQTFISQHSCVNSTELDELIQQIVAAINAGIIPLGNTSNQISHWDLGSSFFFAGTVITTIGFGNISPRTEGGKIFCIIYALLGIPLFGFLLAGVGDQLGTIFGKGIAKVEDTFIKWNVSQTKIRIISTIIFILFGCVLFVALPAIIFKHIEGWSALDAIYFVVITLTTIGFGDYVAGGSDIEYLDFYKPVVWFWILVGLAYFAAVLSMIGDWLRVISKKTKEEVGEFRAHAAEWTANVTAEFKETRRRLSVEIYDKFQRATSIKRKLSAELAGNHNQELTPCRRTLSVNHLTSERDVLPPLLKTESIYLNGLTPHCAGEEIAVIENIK
Chain of UniProt P0ABQ4 (whole entry, looked up): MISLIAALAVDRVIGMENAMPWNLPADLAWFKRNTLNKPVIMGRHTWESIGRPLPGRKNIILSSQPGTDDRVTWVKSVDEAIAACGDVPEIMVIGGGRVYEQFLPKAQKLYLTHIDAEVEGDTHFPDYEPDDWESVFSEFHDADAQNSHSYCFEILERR

For `Oc1ccc(/C=C/c2cc(O)cc(O)c2)cc1`, “ΔH of binding” read -14.4 ± 0.172 kcal/mol (O-methyltransferase (Sorghum bicolor, UniProt A0A1B6PFV1); concentration not given, together with: SAH+).
With `Nc1nc2c(ncn2[C@@H]2O[C@@H]3COP(=O)(O)O[C@H]4[C@@H](O)[C@H](n5cnc6c(=O)[nH]c(N)nc65)O[C@@H]4COP(=O)(O)O[C@H]3[C@H]2O)c(=O)[nH]1` the ΔS was 28.2 cal/mol/K (Cell cycle histidine kinase CckA, CA domain (Caulobacter vibrioides, UniProt Q9X688); ITC; together with: AMPPNP 5 mM).
`C#CCN(Cc1cnc2nc(N)nc(N)c2n1)c1ccc(C(=O)N2CCC(C(=O)OC)CC2)cc1` has a partition index of 0.97 (Pteridine reductase 1 (Leishmania major, UniProt Q01782); hDHFR weight 10; reference: LmPTR1, LmDHFR over hDHFR, 1.0 selective, 0.0 non-selective).
`CCC(=O)N[C@H](CC(C)C)C(=O)N1C(=O)C=C(OC)[C@@H]1CC(C)C`: activity “inactive” (Androgen receptor (AR, Homo sapiens, UniProt P10275, T878A); LNCaP; 5 µM).
For `CCC(C)(NCCc1ccc(C)cc1)c1cccc(NC2=CC(=O)N(C3CCC(=O)NC3=O)C2=O)c1` (stereo not shown), the Dmax was 74% (Cereblon/Ikaros; protein degradation, degrader, HiBiT luminescence; Jurkat).
`Oc1ccccc1-c1n[nH]cc1-c1ccnc2ccccc12`: “log2 fold change” -0.19 (Actin-regulating kinase PRK1 (PRK1, Candida albicans, UniProt Q5A961); kinase binding, MIB/MS competition; Candida albicans lysate; 1 µM; reference: DMSO, negative = stronger binding).
`C=CC(=O)N1CCC(C(=O)NCC(=O)N2CCN(c3nc(-c4cnc(N)nc4C(F)F)nc(N4CCOCC4)n3)CC2)CC1` has a remaining binding of 86% (MAP4K3 (Homo sapiens, UniProt Q8IVH8); KINOMEscan; 1 µM).
`[Cl-].[Cl-].[Zn+2]` gave a Hill coefficient of 0.9 (HVCN1 (Homo sapiens, UniProt Q96D96, E119H); whole-cell voltage clamp; 80 mV, open probability 0.8).
For `[O-][S+]1CCCCS1` (stereo not shown), the target engagement was 65.5% (SOD1 (Homo sapiens, UniProt P00441, G94A); item: SOD1 dimer; SOD1 G93A transgenic mice, blood; iv, 10 mg/kg once daily).
`N#Cc1ccn2c(-c3ccncc3)c(-c3ccc(F)cc3)nc2c1`: “log2 fold change” 0.0494 (Mitogen-activated protein kinase MKC1 (MKC1, Candida albicans, UniProt P43068); kinase binding, competitor, MIB/MS competition, item: MKC1; Candida albicans cell lysate; 1 µM; reference: DMSO).
Under “mean decatenated DNA”, `O=c1nc(SCc2cc(F)cc(C(F)(F)F)c2)nc(SCc2ccc3ccccc3n2)[nH]1` is recorded as 89.5% (TOP2A; decatenation; 15.6 µM).
With `C=CC(=O)N1CCC[C@@H](n2nc(-c3ccc(Oc4ccccc4)cc3)c3c(N)ncnc32)C1` the remaining activity was 77.4% (FES (Homo sapiens, UniProt P07332); 1 µM).
`CN(C)C(=O)c1cc2cnc(Nc3ccc(N4CCNCC4)cn3)nc2n1C1CCCC1`: elastase activity “no effect” (ELANE; neutrophil supernatant; 0.3 to 10 µM, cell-free).
`NS(=O)(=O)c1ccc(Nc2nc(OCC3CCCCC3)c3[nH]cnc3n2)cc1` gave a Hill slope of -0.577 (PKN1 (Homo sapiens, UniProt Q16512); inhibitor).
For `Cc1nc(CSc2nc(SCc3cc(F)cc(C(F)(F)F)c3)nc(=O)[nH]2)cs1`, the decatenated DNA was 98.9% (TOP2A; decatenation; 15.6 µM, replicate 1).
`C=CC(=O)N1CCC(COCC(=O)N2CCN(c3nc(-c4cnc(N)nc4C(F)F)nc(N4CCOC[C@@H]4C)n3)CC2)CC1` has a remaining binding of 79% (PIK3C2G (Homo sapiens, UniProt O75747); KINOMEscan; 1 µM).
With `CC(C)(NCCc1ccc(C(F)(F)F)c(Cl)c1)c1cccc(NC2=CC(=O)N(C3CCC(=O)NC3=O)C2=O)c1` (stereo not shown) the Dmax was 86% (Cereblon/Ikaros; protein degradation, degrader, HiBiT luminescence; Jurkat).
`CCCCCCCC/C=C\CCCCCCCC(=O)NCCc1ccc(O)c(O)c1`: “maximal open probability” 0.45 ± 0.05 (Trpv1 (Mus musculus, UniProt Q704Y3, T551V); ion current, agonist, whole-cell patch clamp; T551V; reference: 3 mM 2-APB).
For `O=C(COP(=O)(O)O)[C@@H](O)[C@H](O)[C@H](O)COP(=O)(O)O`, “thermal stability ratio” read 0.714 and 0.4 and 0.438 (NADH-ubiquinone oxidoreductase 75 kDa subunit, mitochondrial (Homo sapiens, UniProt P28331); thermal proteome profiling, item: NDUFS1; HepG2 cell lysate; concentration not given, 57 over 37 °C; reference: compound over control).
For `O=c1cc(-c2ccc(OS(=O)(=O)O)cc2)oc2cc(OS(=O)(=O)O)cc(OCc3cccc(COc4cc(OS(=O)(=O)O)cc5oc(-c6ccc(OS(=O)(=O)O)cc6)cc(=O)c45)n3)c12`, the Km was 788 ± 66 µM (ELANE; 500 nM, together with: chromogenic substrate).
`CC1(C)CC2(C)OC(=O)NC2(C)c2ccccc21` (stereo not shown): “log fold enrichment” -0.313 (DDB1 (Homo sapiens, UniProt Q16531); binding, affinity selection mass spectrometry; reference: other proteins in batch).
Under “PIP2 binding competition”, `CCCCCCCCCCCCC/C=C/[C@@H](O)[C@@H](N)COP(=O)(O)O` is recorded as “not detected” (KCNK2 (Homo sapiens, UniProt O95069); lipid binding, BRET; 100 µM, together with: fluorescent PIP2 500 nM).
For `CC(=O)N[C@H](C(=O)N1C[C@H](O)C[C@H]1C(=O)NCc1ccc(-c2scnc2C)cc1)C(C)(C)SCCCCCCNC(=O)C[C@@H]1N=C(c2ccc(Cl)cc2)c2c(sc(C)c2C)-n2c(C)nnc21`, the ΔpKd was 0.3 ± 0.1 (BRD4/VHL, BD2; with elongins B/C (Homo sapiens, UniProt O60885+P40337, A384K/E383V/K378Q); ITC; 25 °C, unit not given, together with: BRD4 BD2; reference: ternary over binary).
`O=c1nc(SCc2cc(F)cc(C(F)(F)F)c2)nc(SCc2ccc3sccc3c2)[nH]1` gave a relaxed DNA of 1.2% (TOP2A; DNA relaxation; 62.5 µM, replicate 2).
`COc1ccc(C(=O)/C=C/c2cccc(-c3cccc(-c4ccc(CNC(CO)(CO)CO)c(OC)n4)c3C)c2)cc1` has a degradation of under 5% (CD274 (Homo sapiens, UniProt Q9NZQ7); degrader, western blot; HL-60; 1 µM).
With `O=C(Nc1cccc2ncccc12)C1CCCN(S(=O)(=O)c2cccs2)C1` (stereo not shown) the SPR response was 0.671 RU (AASS, LKR domain (Homo sapiens, UniProt Q9UDR5); binding, surface plasmon resonance; 0.5556 µM).
`Cc1nc(CSc2nc(SCc3ccc(C(F)(F)F)cc3)nc(=O)[nH]2)cs1`: “mean decatenated DNA” 26.7% (TOP2A; decatenation; 125 µM).
Under binding, `CCc1c(C)c2cc3nc(cc4nc(cc5c(CC)c(C)c(cc1[nH]2)n5C)C(C)=C4CCC(=O)O)C(CCC(=O)O)=C3C` is recorded as “binds” (T1, G-quadruplex RNA (Caenorhabditis elegans); X-ray crystallography).
The reaction rate of `Nc1nc2c(ncn2[C@@H]2O[C@H](COP(=O)(O)O)[C@@H](O)[C@H]2O)c(=O)[nH]1` is reported as -0.423 s⁻¹ and -0.449 s⁻¹ and 0.107 s⁻¹ (GUK1 (Homo sapiens, UniProt Q16774, E72A); enzyme activity, NADH-coupled; 7.812 µM).
Under “ATP hydrolysis rate”, `O=c1nc(SCc2cc(F)cc(C(F)(F)F)c2)nc(SCc2ccc3nc(Cl)ccc3c2)[nH]1` is recorded as 0.923 µM/min and 1.46 µM/min (TOP2A; ATPase activity; 31.25 µM, together with: ATP 0.25 mM).
For `O=C(O)c1ccc(Nc2ncc3c(n2)-c2ccc(Cl)cc2C(c2c(F)cccc2F)=NC3)cc1`, the remaining activity was 88% (EphA3(h); kinase activity; 1 µM).
`Nc1nc(N)c2c(n1)CCCC2` — result for “koff from excited state”: 179 s⁻¹ (folA (Escherichia coli, UniProt P0ABQ4); conformational gating model).
`C[C@@H]1CC=N[C@H]1C(=O)NCCCC[C@H](N)C(=O)O` has a Km of 21.03 ± 0.15 µM (chimeric pyrrolysyl-tRNA synthetase, Methanosarcina mazei/barkeri; aminoacylation, substrate; pH 7.2, 10 mM MgCl2, together with: ATP, tRNA(Pyl)).
For `O=c1nc(SCc2ccc(C(F)(F)F)cc2)nc(SCc2ccc3sccc3c2)[nH]1`, the decatenated DNA was 82.7% (TOP2A; decatenation; 15.6 µM, replicate 2).
For `c1ccc(CCCCCOCCc2ccc3c(c2)OCC3)cc1`, the Emax was about 23% (ATP2A2 (Sus scrofa, UniProt P11607); ATPase Vmax increase, activator; pig microsomes; 0.1 to 50 µM; reference: vehicle).
For `Cc1ccccc1C1CC(=O)c2c(C)nc(N)nc2C1` (stereo not shown), “log fold enrichment” read -0.0483 (DNA (cytosine-5)-methyltransferase 3A, PWWP domain (DNMT3A, Homo sapiens, UniProt Q9Y6K1); binding, affinity selection mass spectrometry; reference: other proteins in batch).
`OC[C@H]1OC(O)[C@H](O)[C@@H](O)[C@@H]1O` (stereo partly shown) — result for DNA binding: “no effect” (Transcription factor MafB (MAFB, Homo sapiens, UniProt Q9Y5Q3); EMSA; concentration not given, together with: DNA).
`S=C(NCc1ccc2c(c1)OCO2)N1CCN(c2ncnc3c2oc2ccccc23)CC1`: AXL phosphorylation “decreased” (AXL (Homo sapiens, UniProt P30530); GAS6-stimulated phosphorylation, inhibitor, Western blot; maturing neuronal cultures; 1 µM, 1 h, 4-week cultures, together with: GAS6).
`CC(=O)N[C@@H](CSC(=O)[C@]1([C@@H](O)C(C)C)NC(=O)[C@H](C)[C@@H]1O)C(=O)O` — result for “20S proteasome activity”: “decreased” (PSMB5 (Homo sapiens, UniProt P28074); proteolytic activity; human islets; concentration not given, 24 h, together with: Suc-LLVY-AMC substrate).
The relaxed DNA of `O=c1nc(SCc2cc(F)cc(C(F)(F)F)c2)nc(SCc2csc3ccc(Cl)cc23)[nH]1` is reported as 75.6% (TOP2A; DNA relaxation; 7.8 µM, replicate 2).
